Results collected from several papers.
Compare with care: the assays were run in different laboratories. Several values in a cell are separate wells, animals, samples, runs or records.
Target: Tyrosine-protein kinase Yes (YES1, Homo sapiens, UniProt P07947)

| SMILES | test | test system | setting | scale | measurement | result |
| --- | --- | --- | --- | --- | --- | --- |
| C=CC(=O)Nc1cc(-c2nn(C3CCN(CCNC(=O)[C@H](C)CCC45CC6CC(CC(C6)C4)C5)CC3)c3ncnc(N)c23)ccc1Oc1ccccc1 | inhibitor, KiNativ profiling | biochemical | 2 µM |  | inhibition | 84.9% |
| NC(=O)C[C@H]1CCc2sc3ncnc(O[C@H]4CC[C@H](N5CCOCC5)CC4)c3c21 | enzyme activity, inhibitor |  | 10 µM |  | inhibition | 11% |
| Cc1ccc(-c2c(/C=C(\C#N)C(=O)NC(C)C)n(CCCO)c3ncnc(N)c23)cc1 | cell-free assay, competition with immobilised ligand |  | 1 µM |  | remaining binding | 81% |
| Cc1cccc(-c2ccc3nc(NC(=O)C4CCOCC4)nn3c2)c1 | enzyme activity, Dundee kinase panel |  | 10 µM |  | remaining activity | 94% |
| COc1cc(Nc2nc(C)cc(-c3cnn4nc(OC)ccc34)n2)cc(C(F)(F)F)c1 | binding, competition with immobilised ligand |  | 1 µM |  | remaining binding | 80% |
| Cc1cccc(O[C@H]2CCC[C@@H](C(C)CNCc3ccncc3)C2)c1 (relative stereo) | enzyme activity, inhibitor |  | 10 µM |  | inhibition | -3% |
| Cc1ccc(C(=O)Nc2ccc(CN3CCN(C)CC3)c(C(F)(F)F)c2)cc1C#Cc1cnc2cccnn12 | target engagement, NanoBRET | human cells |  |  | upper asymptote | 8080 |
| Cc1cccc(-c2ccc3nc(NC(=O)C4CCCO4)nn3c2)c1 (stereo not drawn) | enzyme activity, Dundee kinase panel |  | 10 µM |  | remaining activity | 89% |
| C=CC(=O)N1Cc2nc(-c3cc(-c4cc(Cl)cnc4Cl)c(F)cc3F)n(-c3ccncn3)c2C1 | cell-free assay, inhibitor |  | 1 µM |  | inhibition | 8.5% |
| C=CC(=O)Nc1cccc(-c2cnc3[nH]cc(C(=O)NC(C)(C)C)c3n2)c1 | kinase activity |  | 0.1 µM |  | inhibition | 14% and 15% |
| CNC(=O)C1CCN(c2cc(C)c(F)cc2NC(=O)c2ccc(-c3cc(O)ccc3C)c(C)c2)CC1 | binding, competition with immobilised ligand |  | 1 µM |  | remaining binding | 1.1% |
| C[C@H]1CN(C(=O)c2cn(-c3ccnc(N)n3)c3cc(C#CC4(O)CCCCC4)ccc23)CCN1 | enzyme activity, inhibitor, FRET |  | 1 µM |  | inhibition | -1% |
| CNC(=O)C[C@H](Cc1ccc(C#N)cc1)NC(=O)c1cc(-c2ccc(CN[C@H](C)c3ccc(C)cc3)o2)ccc1Cl | enzyme activity, inhibitor |  | 1 µM |  | activity vs control | 99% |
| COc1c(Cl)cccc1Nc1c(-c2ccncc2C#C[C@@]2(C)CCCN2C(=O)/C=C/CN(C)C)[nH]c2c1C(=O)NCC2 | cell-free assay, competition with immobilised ligand |  | 3 µM |  | remaining binding | 82% |
| CCN1CCN(Cc2ccc(NC(=O)c3ccc(C)c(NC(=O)c4cncc(-c5cnn(C)c5)c4)c3)cc2C(F)(F)F)CC1 | binding, competition with immobilised ligand |  | 1 µM |  | remaining binding | 1.6% |
| CNC1C[S+]2CC[S+]3CC[S+](C1)[Ru-4]321([N]=C=S)[n]2c3ccc(OC)cc3c3c4c(c5cc(F)c[n+]1c5c32)C(=O)NC4=O (stereo not drawn) | KinomeScan |  | 0.1 µM | reference: untreated | remaining binding | 100% |
| CCn1cc(C(=O)O)c(=O)c2c(N)c(F)c(NC3CCCCC3)cc21 | kinase activity |  | 0.1 µM, with: ATP at Km |  | inhibition | -11.5% |
| Nc1ncc2c(n1)-c1c([nH]c3ccc(C4=CCOCC4)cc13)CCC2 | binding, competition with immobilised ligand |  | 1 µM |  | remaining binding | 100% |
| COc1c(OCCCN2CCOCC2)ccc2c1N=C(NC(=O)c1cnc(N)nc1)N1CCN=C21 | kinase activity, inhibitor |  | 1 µM | reference: untreated control | remaining activity | 82% |
| O=C(Nc1ccc(Oc2ncnc3[nH]cc(-c4ccccc4)c23)c(F)c1)c1c2n(n(-c3cc(F)ccc3F)c1=O)CCCC2 | enzyme activity, inhibitor |  | 0.5 µM |  | inhibition | -13% |
| C=CC(=O)N1CCCC(n2c(=O)c3ncccc3n(Cc3ccc(Oc4ccccc4)cc3)c2=O)C1 (stereo not drawn) | cell-free assay, competition with immobilised ligand |  | 1 µM |  | remaining binding | 86% |

For quick reference, copied from above:
| SMILES | test | test system | setting | scale | measurement | result |
| --- | --- | --- | --- | --- | --- | --- |
| C=CC(=O)N1CCCC(n2c(=O)c3ncccc3n(Cc3ccc(Oc4ccccc4)cc3)c2=O)C1 (stereo not drawn) | cell-free assay, competition with immobilised ligand |  | 1 µM |  | remaining binding | 86% |
| Cc1ccc(-c2c(/C=C(\C#N)C(=O)NC(C)C)n(CCCO)c3ncnc(N)c23)cc1 | cell-free assay, competition with immobilised ligand |  | 1 µM |  | remaining binding | 81% |
